{"data": "Measured values collected from several papers", "note": "Numbered parts are unrelated; each lists some results of a single study. Substitutions count along the parent as printed."}
{"data": "Block 1", "target": "UBE2D3 UBC core domain (UniProt P61077)", "method": "yeast two-hybrid", "medium": "yeast", "setting": "mostly zero background", "relative to": "not given", "reading": "higher = stronger interaction", "B1": "DTX1 RING domain (UniProt Q86Y01); chain QKVKNPPDEDCTICMERLVTASGYEGVLRHKGVRPELVGRLGRCGHMYHLLCLVAMYSNGNKDGSLQCPTCKAIYGEKTGTQ", "Target sequence (chain)": "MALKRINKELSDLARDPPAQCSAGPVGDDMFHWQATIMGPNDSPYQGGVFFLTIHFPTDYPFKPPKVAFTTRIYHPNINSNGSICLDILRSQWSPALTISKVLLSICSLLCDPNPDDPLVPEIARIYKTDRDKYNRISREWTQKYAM"}
{"Sequence": "QLRRLQEERTCKVCLDRAVSIVFVPCGHLVCAECAPGLQLCPICRAPVRSRVRTF (BIRC7 RING domain (UniProt Q96CA5))", "lacZ reporter activity": 0}
{"Sequence": "KEQLEKHNDICAICYQDMKSAVITPCSHFFHAGCLKKWLYVQETCPLCHCHLKNSSQLP (RNF145 RING domain (UniProt Q96MT1))", "lacZ reporter activity": 0}
{"Sequence": "B1 (DTX1 RING domain)", "lacZ reporter activity": 11900}
{"data": "Block 2", "target": "CCNB2, cyclin fold, Cln2 fusion (human)", "method": "yeast growth competition, sequencing", "medium": "yeast", "setting": "strong parent motif", "relative to": "not given", "reading": "higher = stronger binding", "parent": "viral docking peptide; YKVKRRLVFGADD"}
{"Substitution": "YKVKRRLVFGPDD [A11P]", "normalised enrichment score": 2.35}
{"Substitution": "YKVKRRLVLGADD [F9L]", "normalised enrichment score": 0.485}
{"Substitution": "YKVKRRLVTGADD [F9T]", "normalised enrichment score": 0.699}
{"Substitution": "YQVKRRLVFGADD [K2Q]", "normalised enrichment score": 2.38}
{"Substitution": "YKVKRRLVFGNDD [A11N]", "normalised enrichment score": 1.71}
{"Substitution": "YKVKRRLVFGKDD [A11K]", "normalised enrichment score": 1.3}
{"Substitution": "YKVKRRLVEGADD [F9E]", "normalised enrichment score": 0.121}
{"Substitution": "YKVKRRPVFGADD [L7P]", "normalised enrichment score": 0.609}
{"Substitution": "YKVKCRLVFGADD [R5C]", "normalised enrichment score": 0.918}
{"Substitution": "YKVKRLLVFGADD [R6L]", "normalised enrichment score": 0.687}
{"Substitution": "YKVTRRLVFGADD [K4T]", "normalised enrichment score": 0.297}
{"Substitution": "YKVKRRLVFGVDD [A11V]", "normalised enrichment score": 1.61}
{"Substitution": "YKVQRRLVFGADD [K4Q]", "normalised enrichment score": 1.14}
{"Substitution": "YKVKRRIVFGADD [L7I]", "normalised enrichment score": 1.11}
{"Substitution": "YKVKRRLRFGADD [V8R]", "normalised enrichment score": 0.809}
{"Substitution": "YKVKRRRVFGADD [L7R]", "normalised enrichment score": 1.27}
{"Substitution": "YKAKRRLVFGADD [V3A]", "normalised enrichment score": 0.16}
{"Substitution": "YKVKRRLVFGFDD [A11F]", "normalised enrichment score": 1.86}
{"Substitution": "YKSKRRLVFGADD [V3S]", "normalised enrichment score": 0.582}
{"Substitution": "YKVKRRLVFGMDD [A11M]", "normalised enrichment score": 1.77}
{"Substitution": "YKVKRRLLFGADD [V8L]", "normalised enrichment score": 1.21}
{"Substitution": "YKVKRRFVFGADD [L7F]", "normalised enrichment score": 0.613}
{"Substitution": "YKVKRRLVFGAYD [D12Y]", "normalised enrichment score": 1.21}
{"Substitution": "YKVKRRWVFGADD [L7W]", "normalised enrichment score": 0.144}
{"Substitution": "YKVKRGLVFGADD [R6G]", "normalised enrichment score": -0.00289}
{"data": "Block 3", "target": "TAR DNA-binding protein 43, full length, His tag (TARDBP, Homo sapiens, UniProt Q13148, residues 1-414)", "method": "RNA Bind-n-Seq", "form": "RNA", "medium": "in vitro", "tested at": "20 nM", "setting": "6-mer, flanks averaged, single round", "together with": "150 mM KCl", "relative to": "input library", "reading": "higher = stronger binding"}
{"Strand": "GAUUCU", "6-mer enrichment (R)": 0.571}
{"Strand": "GGCCAU", "6-mer enrichment (R)": 1.01}
{"Strand": "CCACUU", "6-mer enrichment (R)": 0.609}
{"Strand": "AGAGGG", "6-mer enrichment (R)": 4.3}
{"Strand": "AAACAC", "6-mer enrichment (R)": 0.604}
{"Strand": "ACCUAG", "6-mer enrichment (R)": 0.679}
{"Strand": "GGCGGG", "6-mer enrichment (R)": 9.71}
{"Strand": "CCCGGG", "6-mer enrichment (R)": 1.47}
{"data": "Block 4", "target": "Prothrombin, mature alpha-thrombin (F2, Homo sapiens, UniProt P00734)", "method": "aptamer microarray, sandwich", "form": "DNA with 2'F-ANA", "medium": "in vitro", "tested at": "200 nM", "setting": "whole 15-mer aptamer, many near background", "together with": "Cy3 exosite-II aptamer, 400 nM", "reading": "higher = stronger binding", "strand": "GGTTGGTGTGGTTGG"}
{"Modification": "2'F-ANA at 2 6 7 8 11 12 14", "mean fluorescence intensity [a.u.]": 178}
{"Modification": "2'F-ANA at 3 8 10", "mean fluorescence intensity [a.u.]": 677}
{"Modification": "2'F-ANA at 1 3 5 6 7 8 9 13 15", "mean fluorescence intensity [a.u.]": 53.1}
{"Modification": "2'F-ANA at 5 7 9 10 11 15", "mean fluorescence intensity [a.u.]": 51.9}
{"Modification": "2'F-ANA at 4 11 14", "mean fluorescence intensity [a.u.]": 118}
{"Modification": "2'F-ANA at 1 2 4 7 11 12 13 14", "mean fluorescence intensity [a.u.]": 101}
{"Modification": "2'F-ANA at 3 5 10 13 14", "mean fluorescence intensity [a.u.]": 63.8}
{"Modification": "2'F-ANA at 1 4 5 8 9 10 11 15", "mean fluorescence intensity [a.u.]": 49.1}
{"data": "Block 5", "target": "JUND, bZIP domain (human)", "method": "DHFR protein complementation", "medium": "yeast", "setting": "single substitutions, most at no-binding floor", "relative to": "wild-type JUN-FOS pair", "reading": "higher = stronger binding", "parent": "JUN, bZIP domain (human); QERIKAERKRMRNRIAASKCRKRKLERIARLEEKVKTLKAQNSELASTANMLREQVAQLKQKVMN"}
{"Substitution": "R30P", "binding fitness": "-1.41 natural log"}
{"Substitution": "R53G", "binding fitness": "-1.28 natural log"}
{"Substitution": "Q55Y", "binding fitness": "-1.34 natural log"}
{"Substitution": "N42T", "binding fitness": "-1.34 natural log"}
{"Substitution": "V35R", "binding fitness": "-1.4 natural log"}
{"Substitution": "L31G", "binding fitness": "-1.41 natural log"}
{"Substitution": "L52R", "binding fitness": "-1.46 natural log"}
{"Substitution": "Q55S", "binding fitness": "-1.29 natural log"}
{"data": "Block 6", "target": "HLA class I histocompatibility antigen, A alpha chain, allele A*25:01 (Homo sapiens, UniProt P04439)", "read-out": "peptide-MHC binding", "form": "peptide", "tested at": "concentration not given"}
{"Sequence": "LIMEFNSLL", "binding": "inactive"}
{"Sequence": "FLFDRLTNG", "binding": "inactive"}
{"Sequence": "GQMYNMNTL", "binding": "inactive"}
{"note": "Some of these lines once more (block 6):"}
{"Sequence": "LIMEFNSLL", "binding": "inactive"}
{"Sequence": "FLFDRLTNG", "binding": "inactive"}
{"Sequence": "GQMYNMNTL", "binding": "inactive"}
